Assay results from different studies.
Every numbered part comes from another study and shows a few of its results, in no order.
Sequence of UniProt Q00534 (whole entry, looked up): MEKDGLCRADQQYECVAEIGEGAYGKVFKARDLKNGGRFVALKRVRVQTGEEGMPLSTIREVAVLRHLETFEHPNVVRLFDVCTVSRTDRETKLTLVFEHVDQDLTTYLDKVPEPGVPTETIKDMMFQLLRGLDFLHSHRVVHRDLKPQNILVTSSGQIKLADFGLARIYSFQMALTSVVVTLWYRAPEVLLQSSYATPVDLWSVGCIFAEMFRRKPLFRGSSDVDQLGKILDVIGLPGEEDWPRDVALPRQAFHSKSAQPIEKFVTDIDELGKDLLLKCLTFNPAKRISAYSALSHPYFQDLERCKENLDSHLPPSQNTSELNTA

Set 1
Target: Interferon regulatory factor 3, full length, phosphomimetic (IRF3, Homo sapiens, UniProt Q14653, residues 1-427, S386D/S396D/S398D/S402D/T404D/S405D)
Technique: protein-binding microarray
Molecule type: double-stranded DNA, one strand shown
Matrix: in vitro
Tested at: 2540 nM top
Notes: 60-bp whole probe
Added: salmon DNA 0.4 mg/ml
Relative to: random background probes
Reading: higher = stronger binding
Constant ends, left off below: GCCTAGCAC … GTCTTGATTCGCTTGACGCTGCTG
Residues (chain): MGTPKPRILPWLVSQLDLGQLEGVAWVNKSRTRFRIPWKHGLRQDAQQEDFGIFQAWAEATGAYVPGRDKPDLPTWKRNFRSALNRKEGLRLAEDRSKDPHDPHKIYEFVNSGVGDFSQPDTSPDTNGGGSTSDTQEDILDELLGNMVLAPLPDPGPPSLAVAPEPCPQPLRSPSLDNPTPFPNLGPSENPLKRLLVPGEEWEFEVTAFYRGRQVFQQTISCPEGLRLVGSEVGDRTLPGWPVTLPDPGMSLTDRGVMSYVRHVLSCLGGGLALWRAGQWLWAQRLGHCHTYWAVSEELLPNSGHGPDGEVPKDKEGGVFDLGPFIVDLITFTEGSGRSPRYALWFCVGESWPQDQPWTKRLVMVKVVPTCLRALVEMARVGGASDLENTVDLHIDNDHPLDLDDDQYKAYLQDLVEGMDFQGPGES
Strand	fitted relative affinity [z-score]
TTAGATTTCAGTTCCGAATAGTGCTAG	3.87
TCACTTCTGGTGCTCATACTGTGCTAG	0.944
TTAGAACTCGGGTTTCGATTAGTGCTA	1.53
TTAGGCATCGACACTGGGTTAGTGCTA	-0.913
TTAGGTTTCGGTATCGGGTAGTGCTAG	7.98
GACGTTTTCGGGTATCGAGACGTGCTA	2.18
TTAGATATCGGGTAACGATTAGTGCTA	-0.0677
GCCTTTATATACCTGAATATGTGCTAG	0.737

Set 2
Target: Protein C-ets-1, full length (ETS1, Homo sapiens, UniProt P14921, residues 1-441)
Technique: protein-binding microarray
Molecule type: hairpin DNA
Matrix: in vitro
Tested at: not given
Notes: whole hairpin DNA, median over replicate spots
Relative to: not given
Reading: higher = stronger binding
Residues (chain): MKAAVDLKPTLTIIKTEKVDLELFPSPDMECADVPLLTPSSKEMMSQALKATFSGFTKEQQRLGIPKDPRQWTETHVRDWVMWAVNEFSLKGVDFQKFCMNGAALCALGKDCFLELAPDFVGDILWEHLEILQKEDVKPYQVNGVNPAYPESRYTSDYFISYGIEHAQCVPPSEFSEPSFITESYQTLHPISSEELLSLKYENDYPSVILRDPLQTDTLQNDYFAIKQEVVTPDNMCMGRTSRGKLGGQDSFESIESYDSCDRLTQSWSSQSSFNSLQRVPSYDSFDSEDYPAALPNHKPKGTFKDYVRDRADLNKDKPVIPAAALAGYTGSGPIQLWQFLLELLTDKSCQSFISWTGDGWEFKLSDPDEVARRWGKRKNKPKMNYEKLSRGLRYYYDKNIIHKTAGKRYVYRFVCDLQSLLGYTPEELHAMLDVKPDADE
Strand	median fluorescence [a.u.]
GAGGCCAGTGGGAAGTTGCCTCCTGGCAACTTCCCACTGGCCTCACACTC	991
GAGGCCAGCTGGAAGTTGCCTCCTGGCAACTTCCAGCTGGCCTCACACTC	771
GAGGCCAGGCGGAAGTTGCCTCCTGGCAACTTCCGCCTGGCCTCACACTC (5mC at 36)	5590
GAGGCCCGTCGGAAGTTGCCTCCTGGCAACTTCCGACGGGCCTCACACTC (5mC at 7)	2510
GAGGCCAGCCGCGAGTTGCCTCCTGGCAACTCGCGGCTGGCCTCACACTC (5mC at 12)	557
GAGGCCAGCCGGAAGTTGCCTCCTGGCAACTTCCGGCTGGCCTCACACTC (5mC at 37)	9860
GAGGCCAGCCGGAACTTGCCTCCTGGCAAGTTCCGGCTGGCCTCACACTC (5mC at 15)	2020

Other studies, line by line
Molecule	tested on	assay	system	conditions	scale	quantity	value
CEP120 (Homo sapiens, UniProt Q8N960)	RRBP1 (Homo sapiens, UniProt Q9P2E9)	cross-linking MS		hits only		interaction screen	cross-linked
COc1cc2ncnc(Nc3ccc(Oc4ccccc4)cc3)c2cc1OC	Cyclin-dependent kinase 6, with cyclin D1 (CDK6, Homo sapiens, UniProt Q00534)	enzyme activity, inhibitor		0.5 µM	relative to: control	remaining activity	95.1%
PDCD5 (Homo sapiens, UniProt O14737)	CCT4 (Homo sapiens, UniProt P50991)	cross-linking MS		hits only		interaction screen	cross-linked
MCM2 (Homo sapiens, UniProt P49736)	GGA1 (Homo sapiens, UniProt Q9UJY5)	cross-linking MS	cell fractions	added: DSSO		cross-linked residues	K896 to K213

Repeated from above (set 1):
Strand	fitted relative affinity [z-score]
TTAGATATCGGGTAACGATTAGTGCTA	-0.0677
